Published values pooled from the literature.
Protocols differ between the studies behind these lines. Values joined by “and” are separate records of one study, mostly repeats; a detail may differ. ± gives the spread as reported.
TOP2A: DNA topoisomerase 2-alpha (TOP2A, Homo sapiens, UniProt P11388)
BEST2: Bestrophin-2a (BEST2, Homo sapiens, UniProt Q8NFU1)
Cereblon/Ikaros: Cereblon/Ikaros (Homo sapiens, UniProt Q13422+Q96SW2)
Pteridine reductase 1: Pteridine reductase 1 (Leishmania major, UniProt Q01782)

Structure (SMILES)	target	test	test system	setting	scale	endpoint	value
CN1CCN(c2cc(-c3ccncc3)c(-c3ccc4ccccc4c3)nn2)CC1	Secretin receptor (SCTR, Homo sapiens, UniProt P47872)	agonist, FLIPR calcium	–	12.5 µM	–	activation	3.8%
O=c1nc(SCc2cc(F)cc(C(F)(F)F)c2)nc(SCc2ccc3nc(OCCN4CCOCC4)ccc3c2)[nH]1	TOP2A	decatenation	–	31.25 µM	–	mean decatenated DNA	1.1%
CC(=O)NCCCC[C@H](NC(=O)CNC(=O)[C@H](CCCNC(=N)N)NC(C)=O)C(=O)Nc1ccc2c(C)cc(=O)oc2c1	human Y386F/Y782F mutant enzyme	substrate, fluorogenic	–	–	–	Km	39 ± 3 µM
COc1cccc2c(-c3ccc(C)cc3)cc(C(=O)Nc3ccc(C(=O)O)cc3)nc12	RARA (Homo sapiens, UniProt P10276)	transactivation, antagonist, reporter gene	–	up to 3300 nM, added: 9-cis-retinoic acid at EC80, 180 nM	–	antagonist activity	inactive
NS(=O)(=O)C(F)(F)F	CA4 (Homo sapiens, UniProt P22748)	ITC	–	concentration not given, 25 °C	–	intrinsic binding ΔG	-10.2 kcal/mol
O=c1nc(SCc2cc(F)cc(C(F)(F)F)c2)nc(SCc2cccc(C(F)(F)F)c2)[nH]1	TOP2A	decatenation	–	125 µM, replicate 1	–	decatenated DNA	0%
CC(C)=CCC/C(C)=C/CC/C(C)=C/COP(=O)(O)OP(=O)(O)O	Protein farnesyltransferase (Rattus norvegicus, UniProt Q02293+Q04631)	substrate, fluorescence kinetics	–	pH 7.5, 25 °C, added: dansyl-GCVLS peptide	–	Km	0.11 ± 0.03 µM
O=c1cc(-c2ccc(OS(=O)(=O)[O-])cc2)oc2cc(OS(=O)(=O)[O-])cc(OCc3cccc(COc4cc(OS(=O)(=O)[O-])cc5oc(-c6ccc(OS(=O)(=O)[O-])cc6)cc(=O)c45)n3)c12.[Na+].[Na+].[Na+].[Na+]	Neutrophil elastase (ELANE, Homo sapiens, UniProt P08246)	enzyme activity, inhibitor	–	added: chromogenic substrate	–	Hill slope	1.7
CC(C)OCCn1c(=S)[nH]c(=O)c2[nH]ccc21	Myeloperoxidase (MPO, Homo sapiens, UniProt P05164)	H2O2 consumption, inhibitor, H2O2 electrode	–	0.68 µM, 0.1 s	–	H2O2 concentration	-0.452 µM
Nc1ncnc2c1ncn2[C@@H]1O[C@H](COP(=O)(O)CP(=O)(O)OP(=O)(O)O)[C@@H](O)[C@H]1O	P2X purinoceptor 1 (P2RX1, Homo sapiens, UniProt P51575, E122A)	saturation binding	–	103 nM	–	specific binding	764 corrected cpm and 1200 corrected cpm and 776 corrected cpm
CC[C@@H](C)[C@@H](NC(=O)[C@@H](Cc1ccc(O)cc1)NC(=O)[C@H]1CCCN1C(=O)[C@@H](CCCNC(=N)N)NC(=O)[C@H](N)Cc1c[nH]cn1)C(=O)N[C@H](C)C(=O)N[C@H](Cc1c[nH]cn1)C(=O)N[C@H](CCCNC(=N)N)C(=O)N[C@@H](C(=O)N[C@H](Cc1ccc(O)cc1)C(=O)N[C@H](CO)C(=O)N[C@H](Cc1ccccc1)C(N)=O)C(C)C	Transferrin receptor protein 1 (Tfrc, Mus musculus, UniProt Q62351)	flow cytometry	DC2.4	48 h, pH 6, replicate 1, unit not given	relative to: 0 h	surface TFRC expression	0.856
O=c1nc(SCc2cc(F)cc(C(F)(F)F)c2)nc(SCc2ccc3ncsc3c2)[nH]1	TOP2A	decatenation	–	15.6 µM, replicate 2	–	decatenated DNA	87.4%
NC1(C(=O)N[C@@H](CCO)c2ccc(Cl)cc2)CCN(c2ncnc3[nH]ccc23)CC1	PKN1 (Homo sapiens, UniProt Q16512)	inhibitor	–	–	–	Hill slope	-0.776
N[C@@H](Cc1ccccc1)C(=O)O	ADRB2 (Homo sapiens, UniProt P07550)	–	HEK293 expressing β2AR	10 µM	–	cAMP level	19.1 pmol/mg protein and 20.2 pmol/mg protein and 19.7 pmol/mg protein and 18.3 pmol/mg protein and 20.3 pmol/mg protein
O=C(O)c1ccc(Nc2ncc3c(n2)-c2ccc(Cl)cc2C(c2c(F)cccc2F)=NC3)cc1	Lyn(m)	kinase activity	–	1 µM	–	remaining activity	52%
C#Cc1cccc(Oc2ccc(-c3nn([C@@H]4CCCN(C(=O)C=C)C4)c4ncnc(N)c34)cc2)c1	ALDH1A3 (Homo sapiens, UniProt P47895)	ABPP-SILAC	–	1 µM, 1 h	relative to: DMSO	SILAC ratio	20
COc1ccc(C(=O)/C=C/c2cccc(-c3cccc(-c4ccc(CNC[C@@H]5CCC(=O)N5)c(OC)n4)c3C)c2)cc1	CD274 (Homo sapiens, UniProt Q9NZQ7)	degrader, western blot	HL-60	1 µM	–	degradation	< 5%
CCOc1cccc(C2CC(=O)Nc3c2c(C)nn3-c2ccc3nncn3n2)c1 (stereo not shown)	DDB1 (Homo sapiens, UniProt Q16531)	binding, surface plasmon resonance	–	1.88 µM	–	SPR response	2.36 RU
c1coc(-c2n[nH]cc2-c2ccnc3ccccc23)c1	Actin-regulating kinase PRK1 (PRK1, Candida albicans, UniProt Q5A961)	kinase binding, MIB/MS competition	Candida albicans lysate	1 µM	relative to: DMSO, negative = stronger binding	log2 fold change	0.05
CCN1CCN(c2cc(N3CCN(CC)CC3)nc(NCCNc3ccnc4cc(Cl)ccc34)n2)CC1	Bile acid receptor (NR1H4, Homo sapiens, UniProt Q96RI1)	reporter gene, Gal4 hybrid reporter	–	20 µM	relative to: vehicle	activation	1.22 fold
O=C(COP(=O)(O)O)[C@@H](O)[C@H](O)[C@H](O)COP(=O)(O)O	Aminopeptidase B (Homo sapiens, UniProt Q9H4A4)	thermal proteome profiling, measured: RNPEP	HepG2 cell lysate	concentration not given, 57 over 37 °C	relative to: compound over control	thermal stability ratio	0.522 and 0.171 and 0.583
COc1cc(-c2cc(C(C)=O)n3ccccc23)c(OC)cc1Cn1ccnc1	PHIP, BD2 (Homo sapiens, UniProt Q8WWQ0)	–	–	–	–	ΔTm	-0.5 °C
CC[C@H](NC(=O)c1c(C)c(-c2ccccc2)nc2ccccc12)c1ccccc1	TACR3 (Homo sapiens, UniProt P29371)	radioligand binding, antagonist	–	reference compound	–	Hill coefficient	1.1
O=C(O)c1ccc([N+](=O)[O-])cc1	BEST2	whole-cell patch clamp	HEK293 transiently expressing channel	concentration not given, membrane potential 60 mV	–	current density	157 pA/pF and 191 pA/pF and 231 pA/pF and 54.7 pA/pF and 202 pA/pF
C[C@@H]1C[C@H](Nc2ccccc2)c2cc(F)ccc2N1C(=O)c1ccc(Cl)nc1	Ecdysone receptor (Aedes albopictus, UniProt Q9U3Y4)	ligand binding, inhibitor	intact cells	added: [3H]ponasterone A	direction not given	pIC50 Z-score	0.26
CCOC(=O)C1=C(CN2CCc3ccccc32)NC(=O)NC1c1ccccc1OC(F)F (stereo not shown)	AASS, SDH domain (Homo sapiens, UniProt Q9UDR5)	binding, surface plasmon resonance	–	1.667 µM	–	SPR response	4.67 RU

Structure (SMILES)	target	test	test system	setting	scale	endpoint	value
O=c1nc(SCc2cc(F)cc(C(F)(F)F)c2)nc(SCc2ccc3ccccc3n2)[nH]1	TOP2A	decatenation	–	7.8 µM, replicate 2	–	decatenated DNA	100%
CC1=CC(=O)c2ccccc2C1=O	TGM2 (Homo sapiens, UniProt P21980)	enzyme activity, inhibitor	–	concentration not given, added: DTT	relative to: without DTT over with DTT	potency reduction	~23 fold
CC[C@@H]1[C@H](F)C(=O)N[C@@H]1COc1nccc2cc(C(N)=O)c(OC)cc12	CHEK2 (Homo sapiens, UniProt O96017)	ATP-site probe binding, ActivX profiling	THP-1 cell lysate	0.2 mM, Lys1 site	–	inhibition	3.8%
CC(C)c1ccc(CSc2nc(SCc3ccc4sccc4c3)[nH]c(=O)n2)cc1	TOP2A	decatenation	–	31.25 µM, replicate 2	–	decatenated DNA	0%
CC(=C/C(=O)O)/C=C/C=C(\C)C1C=C2C(C)(C)CCCC2(C)O1 (stereo not shown)	Rhodopsin (RHO, Homo sapiens, UniProt P08100, E181K)	immunostaining, measured: opsin	COS-7 transfected	30.00 µM, unit not given	relative to: surface over total stained cells	plasma membrane localization	0.94
CC(Oc1ccccc1)C(=O)NCc1ccccn1 (stereo not shown)	DNA (cytosine-5)-methyltransferase 3A, PWWP domain (DNMT3A, Homo sapiens, UniProt Q9Y6K1)	binding, affinity selection mass spectrometry	–	–	relative to: other proteins in batch	log fold enrichment	-0.168
Nc1ccc(C(=O)O)cc1	BEST2	whole-cell patch clamp	HEK293 transiently expressing channel	concentration not given, membrane potential 40 mV	–	current density	95.1 pA/pF and 37.7 pA/pF and 155 pA/pF and 120 pA/pF and 134 pA/pF and 74.9 pA/pF
O=C1CCC(N2C(=O)C=C(Nc3cccc(-c4cn(CCc5ccc(C(F)(F)F)c(Cl)c5)nn4)c3)C2=O)C(=O)N1 (stereo not shown)	Cereblon/Ikaros	protein degradation, degrader, HiBiT luminescence	Jurkat	–	–	Dmax	78%
Nc1nc(N)c2nc(C(=O)NCc3cccc(C(F)(F)F)c3)cnc2n1	Pteridine reductase 1	–	–	hDHFR weight 10	relative to: LmPTR1, LmDHFR over hDHFR, 1.0 selective, 0.0 non-selective	partition index	0.97
O=c1nc(SCc2cc(F)cc(C(F)(F)F)c2)nc(SCc2nc3ccccc3[nH]2)[nH]1	TOP2A	decatenation	–	31.25 µM, replicate 1	–	decatenated DNA	54.4%
CCCCCCCSCCc1ccc2[nH]cnc2c1	ATP2A2 (Sus scrofa, UniProt P11607)	ATPase activity, inhibitor	pig microsomes	concentration not given	relative to: vehicle	reduction in Vmax	~76%
CC[S+]([O-])c1nc(-c2ccccc2)cc(C(F)(F)F)n1 (stereo not shown)	KPNB1 (Homo sapiens, UniProt Q14974)	thermal shift	–	30 µM, 2 h	relative to: untreated	delta Tm	2.2 °C
Cc1cc(Nc2cc3ncccc3c(N[C@@H]3C[C@H]4CC[C@@H](C3)N4CCC#N)n2)n[nH]1	non-JAK kinases	KINOMEscan competition binding	–	1 µM, inhibition at least 90%	–	number of kinases bound	25
N[C@H](CC(=O)O)C(=O)O	aspartate racemase	HPLC	Salinispora arenicola	ATP, MgCl2, PLP, DTT, added: L-aspartate substrate	–	Km	1350 ± 10 µM
O=S(=O)(O)C1CCNCC1	SLC6A6 (Homo sapiens, UniProt P31641, Y138A)	binding, microscale thermophoresis	–	977 nM, room temperature, added: 50 nM labelled protein	higher = more binding	normalised MST signal	0.0102
O=C(O)c1ccc(O)cc1	BEST2	whole-cell patch clamp	HEK293 transiently expressing channel	concentration not given, membrane potential 100 mV	–	current density	281 pA/pF and 210 pA/pF and 264 pA/pF and 218 pA/pF and 128 pA/pF and 147 pA/pF and 167 pA/pF
CCN(Cc1cnc2nc(N)nc(N)c2n1)c1ccc(C(=O)N2CCC(C(=O)OC)CC2)cc1	Pteridine reductase 1	–	–	hDHFR weight 10	relative to: LmPTR1, LmDHFR over hDHFR, 1.0 selective, 0.0 non-selective	partition index	0.49
Cc1nc(CSc2nc(SCc3cc(F)cc(C(F)(F)F)c3)nc(=O)[nH]2)cs1	TOP2A	decatenation	–	7.8 µM	–	mean decatenated DNA	95.4%
CCN1CCC[C@H]1CNC(=O)c1c(O)c(Cl)cc(Cl)c1OC	HCAR3 (Homo sapiens, UniProt P49019)	β-arrestin recruitment, TANGO luminescence, measured: GPR109B	–	concentration not given	relative to: basal luminescence	log2 fold change	-0.582
Nc1nc2c(ccn2[C@@H]2O[C@@H]3COP(=O)(O)O[C@H]3[C@H]2O)c(=O)[nH]1	anti-cGMP antibody	antibody binding, competitive cGMP EIA	–	concentration not given, acetylated samples	relative to: EC50 cGMP over EC50 cpd, higher = stronger binding	relative binding affinity	0.101
O=c1nc(SCc2ccc(C(F)(F)F)cc2)nc(SCc2ccc3sccc3c2)[nH]1	TOP2A	decatenation	–	31.25 µM, replicate 1	–	decatenated DNA	0%
Cc1ccc(NC2=CC(=O)N(C3CCC(=O)NC3=O)C2=O)cc1C(C)(C)NCCc1ccc(C(F)(F)F)c(Cl)c1 (stereo not shown)	Cereblon/Ikaros	protein degradation, degrader, HiBiT luminescence	Jurkat	–	–	Dmax	84%
O=C(O)CCCc1cc2cc(Cl)ccc2n1S(=O)(=O)c1ccc2ncsc2c1	Ppard (Mus musculus, UniProt P35396)	reporter gene, agonist, luciferase reporter	mouse	–	relative to: maximal control activation	Emax	53%
Nc1nc2c(ncn2[C@@H]2O[C@H](COP(=O)(O)O)[C@@H](O)[C@H]2O)c(=O)[nH]1	GUK1 (Homo sapiens, UniProt Q16774, R148A)	binding, ITC	–	–	–	ΔH	-9.67 ± 0.09 kcal/mol
CCCCC/C=C\C/C=C\C/C=C\C/C=C\CCCC(=O)O	human COX-2-PGIS fusion enzyme	conversion to PGI2, substrate	Sf9 membrane fraction	–	–	Km	~3 µM
C[C@H](CCC(C)(C)O)[C@H]1CC[C@H]2[C@@H]3CC=C4C[C@@](C)(O)CC[C@]4(C)[C@H]3CC[C@]12C	Glutamate NMDA receptor; GRIN1/GRIN2B (GRIN1/GRIN2B, Homo sapiens, UniProt Q05586+Q13224, L551A)	positive allosteric modulator, two-electrode voltage clamp	Xenopus oocytes expressing GluN2B-L551A	10 µM, 0.02% cremophor, added: 100 µM glutamate and glycine	relative to: without compound	current response	313 ± 29%

Repeated from above:
Structure (SMILES)	target	test	test system	setting	scale	endpoint	value
O=c1nc(SCc2cc(F)cc(C(F)(F)F)c2)nc(SCc2nc3ccccc3[nH]2)[nH]1	TOP2A	decatenation	–	31.25 µM, replicate 1	–	decatenated DNA	54.4%
CCCCCCCSCCc1ccc2[nH]cnc2c1	ATP2A2 (Sus scrofa, UniProt P11607)	ATPase activity, inhibitor	pig microsomes	concentration not given	relative to: vehicle	reduction in Vmax	~76%
CC[S+]([O-])c1nc(-c2ccccc2)cc(C(F)(F)F)n1 (stereo not shown)	KPNB1 (Homo sapiens, UniProt Q14974)	thermal shift	–	30 µM, 2 h	relative to: untreated	delta Tm	2.2 °C
